Assay results from different studies.
Protocols differ between the studies behind these lines. ± marks the error that the study gave.
Histone acetyltransferase RTT109 with Vps75: Histone acetyltransferase RTT109, with Vps75 (Saccharomyces cerevisiae, UniProt Q07794)
SIRT2: NAD-dependent protein deacetylase sirtuin-2 (SIRT2, Homo sapiens, UniProt Q8IXJ6)
UCHL1: Ubiquitin carboxyl-terminal hydrolase isozyme L1 (UCHL1, Homo sapiens, UniProt P09936)
BRD4 BD2: Bromodomain-containing protein 4, BD2 (BRD4, Homo sapiens, UniProt O60885)
BRD4 BD1: Bromodomain-containing protein 4, BD1 (BRD4, Homo sapiens, UniProt O60885)
Faah: Fatty-acid amide hydrolase 1 (Faah, Rattus norvegicus, UniProt P97612)
serine/threonine phosphatase Stp1: serine/threonine phosphatase Stp1 (Staphylococcus aureus, UniProt A0A0H2XF73)

Compound | target | test | system | setting | IC50 [µM]
O=S1(=O)C=C(Oc2ccc(F)cc2)c2ccccc21 | Histone acetyltransferase RTT109 with Vps75 | enzyme activity, inhibitor, HTS, CPM-based, dose response | – | – | > 125
CC#CC(=O)N1CC[C@@H](n2c(=O)n(-c3ccc(Oc4ccccc4)cc3)c3c(N)ncnc32)C1 | Tyrosine-protein kinase Lyn (LYN, Homo sapiens, UniProt P07948) | – | – | – | 4.59
CCCCCCCCCCCCNC(=S)NCCCC[C@H](NC(=O)OCc1ccccc1)C(=O)N[C@@H](Cc1c[nH]c2ccccc12)C(=O)N[C@@H](CCCCNC(=N)N)C(N)=O | SIRT2 | enzyme activity, inhibitor | – | – | 2.4 ± 0.6
CCc1ccc(Cn2nnc3c4ccc(F)cc4c(=O)[nH]c32)cc1 | Protein mono-ADP-ribosyltransferase PARP12 (PARP12, Homo sapiens, UniProt Q9H0J9) | – | – | – | > 10
N#CC(=Cc1ccccc1OC(F)F)C(=O)Nc1ccccc1F | UCHL1 | inhibitor, ubiquitin-rhodamine cleavage | – | 2 h preincubation | > 200
COc1ccc(F)cc1C(=O)NCc1ccc(-c2nn([C@@H](C)C(F)(F)F)c(N)c2C(N)=O)cc1 | Tyrosine-protein kinase Tec (TEC, Homo sapiens, UniProt P42680) | binding, NanoBRET target engagement | HEK293 | with: tracer | 0.0705 ± 0.0203
Cc1ccc(Cn2cc(COc3cccc(Cc4cnc(NC(=O)CSc5nc(C)cc(C)n5)s4)c3)nn2)cc1 | SIRT2 | – | – | – | 0.17
Cc1cc([C@@H](C)Nc2ccccc2C(=O)O)c2nc(N3CCC(F)(F)CC3)c(C#N)c(=O)n2c1 | Phosphatidylinositol 4,5-bisphosphate 3-kinase catalytic subunit alpha isoform, with p65 alpha (PIK3CA, Homo sapiens, UniProt P42336) | enzyme activity, inhibitor, ADP-Glo | – | with: 10 µM ATP | 1.23
Cc1nc(Nc2ncc(C(=O)Nc3c(C)cccc3Cl)s2)cc(N2CC[C@H](O)C2)n1 | Tyrosine-protein kinase Lyn, isoform A (LYN, Homo sapiens, UniProt P07948) | enzyme activity, inhibitor | – | – | 0.00016
Cc1ccc(S(=O)(=O)/C=C/C#N)cc1 | OTU domain-containing protein 7B (OTUD7B, Homo sapiens, UniProt Q6GQQ9) | deubiquitinase activity, inhibitor, MALDI-TOF DUB | – | 30 °C, 35 min pre-incubation | 1.17
CN(C)C(=O)c1cc2cnc(Nc3cccc4c(=O)cc(N5CCOCC5)oc34)nc2n1C1CCCC1 | BRD4 BD2 | inhibitor | – | – | > 10
Cc1cc(OC(C)C)ccc1C(=O)C(C)(C)NC(=O)c1sccc1C | succinate-cytochrome c oxidoreductase (Botrytis cinerea, UniProt A0A384J5E4+D2IH01+D2IH03) | succinate-cytochrome c reductase activity | Botrytis cinerea, mitochondrial fraction | 25 °C | 0.00278
COc1cc(C=C(C#N)C(=O)Nc2c(C)cc(C)cc2C)cc(OC)c1 | UCHL1 | inhibitor, ubiquitin-rhodamine cleavage | – | 2 h preincubation | > 200
CC1(C)CC[C@]2(C(=O)O)CC[C@]3(C)C(=CC[C@@H]4[C@@]5(C)C[C@@H](O)[C@H](O)C(C)(C)[C@@H]5CC[C@]43C)[C@@H]2C1 | Angiotensin-converting enzyme (ACE, Oryctolagus cuniculus, UniProt P12822) | enzyme activity | – | – | 25.7 ± 0.99
CC(C)CNC(=O)c1cccn(-c2ccc(NC(=O)c3ccc(Br)cc3)cc2)c1=O | Catenin beta-1, with BCL9 HD2 (CTNNB1, Homo sapiens, UniProt P35222) | BCL9 binding, inhibitor, AlphaScreen | – | – | 26.3
CN(C)C(=O)c1cc2cnc(Nc3ccc(-c4cccc5c(=O)cc(N6CCNCC6)oc45)cc3)nc2n1C1CCCC1 | BRD4 BD1 | inhibitor | – | – | 0.002
O=c1nc(SCc2cc(F)cc(C(F)(F)F)c2)nc(SCc2ccc3nc(Cl)ccc3c2)[nH]1 | DNA topoisomerase 2-alpha (TOP2A, Homo sapiens, UniProt P11388) | ATPase activity, ATP-competitive inhibitor | – | with: ATP 0.75 mM | 28
CN1C(=O)CCC(N2C(=O)c3cccc(NCCCCCCNC(=O)c4ccc(Oc5ccc(Cl)cc5NS(=O)(=O)c5ccc(Cl)c(C(F)(F)F)c5)cc4)c3C2=O)C1=O (stereo not shown) | Protein cereblon, with DDB1 (CRBN, Homo sapiens, UniProt Q96SW2) | binding, HTRF | – | – | 1.56
CC[C@@H]1[C@H](F)C(=O)N[C@@H]1COc1nccc2cc(C(N)=O)c(OC)cc12 | Serine/threonine-protein kinase 38-like (STK38L, Homo sapiens, UniProt Q9Y2H1) | ATP-site probe binding, ActivX profiling | THP-1 cell lysate | Lys1 site | 0.99
CC1=CC(=O)C(C(C)C)=CC1=O | Leucine-rich repeat serine/threonine-protein kinase 2 (LRRK2, Homo sapiens, UniProt Q5S007) | kinase activity, radiometric | – | with: MBP substrate | 0.674
Cc1ccc2[nH]nc(-c3nnc(Nc4ccc(O)cc4)s3)c2c1 | thymidine phosphorylase | enzyme activity, inhibitor, spectrophotometric | – | pH 7.5, 25 °C | 9.91 ± 0.49
O=C(O)c1ccc2nc(-c3ccc(OCCC(O)COc4ccc(-c5nc6ccc(C(=O)O)cc6[nH]5)cc4Br)c(Br)c3)[nH]c2c1 (stereo not shown) | Beta-lactamase (Escherichia coli, UniProt Q8VNN1) | enzyme activity, inhibitor | – | – | 73 ± 13
CCCCSC1CC(=O)N(c2ccc(Br)cc2)C1=O (stereo not shown) | Histone acetyltransferase RTT109 with Vps75 | enzyme activity, inhibitor, HTS, CPM-based, dose response | – | – | > 125
O=C(Nc1cccnn1)N1CCC(=Cc2cccc(Oc3ccc(C(F)(F)F)cn3)c2)CC1 | Faah | enzyme activity, inhibitor | rat brain membranes | 5 min preincubation | 0.0028
CC(=O)c1cnc2ccc(-c3cc(Cl)c(O)c(Cl)c3)nc2c1N[C@H]1CC[C@H](CN(C)C)CC1 | Receptor-like protein kinase FERONIA (FER, Arabidopsis thaliana, UniProt Q9SCZ4) | kinase activity, inhibitor, ADP-Glo | – | 60 min, with: 50 µM ATP | 0.07

Compound | target | test | system | setting | IC50 [µM]
CN1CCN(c2ccc(Nc3ncc4cc(C#N)c(=O)n(C5CCCC5)c4n3)cc2)CC1 | Glycogen synthase kinase-3 beta (GSK3B, Homo sapiens, UniProt P49841) | – | – | – | 1.68
Fc1ccc(Nc2nc(-c3ccccc3)no2)cc1 | Histone acetyltransferase RTT109 with Vps75 | enzyme activity, inhibitor, HTS, CPM-based, dose response | – | – | > 125
O=C(O[C@@H]1O[C@@H]2COC(=O)c3cc(O)c(O)c(O)c3-c3c(cc(O)c(O)c3O)C(=O)O[C@H]([C@H]1O)[C@@H]2O)c1cc(O)c(O)c(O)c1 | serine/threonine phosphatase Stp1 | enzyme activity, inhibitor | – | – | 6.38
O=C(CCc1ccccc1Cl)NC1CS(=O)(=O)c2ccccc21 (stereo not shown) | Histone acetyltransferase RTT109 with Vps75 | enzyme activity, inhibitor, HTS, CPM-based, dose response | – | – | > 125
COc1ccc(-c2cc(=O)c3cccc(Nc4ncc5cc(C(=O)N(C)C)n(C6CCCC6)c5n4)c3o2)cc1 | BRD4 BD2 | inhibitor | – | – | > 10
CCN(c1ccccc1)S(=O)(=O)c1ccc(Cl)c(C(=O)Nc2ccccc2N2CC(CC)(CC)CC2=O)c1 | N-myristoyltransferase (Cryptosporidium parvum, UniProt Q5CV46) | enzyme activity, inhibitor | – | – | > 125
C[C@@H]1O[C@H](CNC(=O)c2cc3ccccc3[nH]2)[C@@H](O)[C@H](O)[C@@H]1O | fucose-binding lectin LecB (Pseudomonas aeruginosa, UniProt A0A0H2ZE85) | – | – | – | 3.57 ± 0.66
CN(C)C(=O)c1cc2cnc(Nc3cc(C(F)(F)F)c(-c4ccc5c(=O)cc(N6CCOCC6)oc5c4)cn3)nc2n1C1CCCC1 | BRD4 BD2 | inhibitor | – | – | > 10
O=C(OCc1ccccc1)c1ccc(O)cc1 | Histone-arginine methyltransferase CARM1 (Mus musculus, UniProt Q9WVG6) | methyltransferase activity, inhibitor | – | with: PABP1 substrate, [3H]AdoMet | 474
C[C@@]12C[C@@]3(O)O[C@@H](O1)[C@]1(COC(=O)c4ccccc4)[C@H]3C[C@@]12O[C@@H]1O[C@H](CO)[C@@H](O)[C@H](O)[C@H]1O | serine/threonine phosphatase Stp1 | enzyme activity, inhibitor | – | with: pNPP | > 208
CC(C)(C)c1nsc(N)n1 | Histone acetyltransferase RTT109 with Vps75 | enzyme activity, inhibitor, HTS, CPM-based, dose response | – | – | > 125
Cc1cnc(-c2ccc(-c3ccc(NC(=O)Nc4c(F)cc(F)cc4F)cc3F)c3c2C(=O)NC3)[nH]1 | Hepatocyte growth factor receptor (MET, Homo sapiens, UniProt P08581) | enzyme activity, inhibitor, mobility shift | – | with: ATP 1 mM | 0.0187
Cc1ccc2[nH]nc(-c3nnc(Nc4cc(Cl)cc(Br)c4)s3)c2c1 | thymidine phosphorylase | enzyme activity, inhibitor, spectrophotometric | – | pH 7.5, 25 °C | 17 ± 1.33
Cn1nc2c(=O)n(C3CC3)ccc2c1[C@](O)(c1cnc(C(F)(F)F)c(Cl)c1)C(F)(F)F | Dihydroorotate dehydrogenase (Canis lupus familiaris, UniProt A0A8I3MWX2) | enzyme activity, inhibitor, DCIP reduction | – | – | > 30
O=c1c(O)c(-c2ccc(O)c(O)c2)oc2cc(O)ccc12 | serine/threonine phosphatase Stp1 | phosphatase activity, inhibitor | – | – | > 349
O=C(Nc1ccccc1Cl)N1CCCN(c2nc(-c3ccccc3)ns2)CC1 | Histone acetyltransferase RTT109 with Vps75 | enzyme activity, inhibitor, HTS, CPM-based, dose response | – | – | > 125
O=c1ccc2c(OCCCCOc3cccc(O)c3)c3ccoc3cc2o1 | Potassium voltage-gated channel subfamily A member 3 (Kcna3, Mus musculus, UniProt P16390) | ion current, blocker, whole-cell patch clamp | L929 expressing Kcna3 | – | 0.14
CCc1cccc(CC)c1NC(=O)C(C#N)=Cc1ccc(C#N)cc1 | UCHL1 | inhibitor, ubiquitin-rhodamine cleavage | – | 2 h preincubation | > 200
CC/C(=N\NC(=O)NCc1cccc(O)c1)c1ccc(O)c(C)c1O | Serine/threonine-protein kinase LATS2 (LATS2, Homo sapiens, UniProt Q9NRM7) | kinase activity, inhibitor | – | – | 0.00457 ± 0.00021
CN1CCN(c2cc(=O)c3ccc(Nc4ncc5cc(C(=O)N(C)C)n(C6CCCC6)c5n4)cc3o2)CC1 | BRD4 BD1 | inhibitor | – | – | 0.817
O=S(=O)(c1ccc(Br)c2nsnc12)N1CCOCC1 | Histone acetyltransferase RTT109 with Vps75 | enzyme activity, inhibitor, HTS, CPM-based, dose response | – | – | > 125
CCCCCCCCCCCCNC(=S)NCCCC[C@H](NC(=O)OCc1ccccc1)C(=O)N[C@@H](Cc1c[nH]c2ccccc12)C(=O)N[C@@H](CCCCN)C(N)=O | SIRT2 | enzyme activity, inhibitor | – | – | 3.6 ± 0.6
O=C(Cc1ccc(-c2ccccc2)cc1)NC1CS(=O)(=O)c2ccccc21 (stereo not shown) | Histone acetyltransferase RTT109 with Vps75 | enzyme activity, inhibitor, HTS, CPM-based, dose response | – | – | > 125
O=C(Nc1cnccc1Cl)N1CCN(Cc2ccc3c(c2)OC(F)(F)O3)CC1 | Faah | enzyme activity, inhibitor | rat brain membranes | 30 min preincubation | 0.221

For quick reference, copied from above:
Compound | target | test | system | setting | IC50 [µM]
CC(C)CNC(=O)c1cccn(-c2ccc(NC(=O)c3ccc(Br)cc3)cc2)c1=O | Catenin beta-1, with BCL9 HD2 (CTNNB1, Homo sapiens, UniProt P35222) | BCL9 binding, inhibitor, AlphaScreen | – | – | 26.3
CN(C)C(=O)c1cc2cnc(Nc3ccc(-c4cccc5c(=O)cc(N6CCNCC6)oc45)cc3)nc2n1C1CCCC1 | BRD4 BD1 | inhibitor | – | – | 0.002
O=c1nc(SCc2cc(F)cc(C(F)(F)F)c2)nc(SCc2ccc3nc(Cl)ccc3c2)[nH]1 | DNA topoisomerase 2-alpha (TOP2A, Homo sapiens, UniProt P11388) | ATPase activity, ATP-competitive inhibitor | – | with: ATP 0.75 mM | 28
CN1C(=O)CCC(N2C(=O)c3cccc(NCCCCCCNC(=O)c4ccc(Oc5ccc(Cl)cc5NS(=O)(=O)c5ccc(Cl)c(C(F)(F)F)c5)cc4)c3C2=O)C1=O (stereo not shown) | Protein cereblon, with DDB1 (CRBN, Homo sapiens, UniProt Q96SW2) | binding, HTRF | – | – | 1.56
